Measured values pooled from the literature.
Each line is one published result; not all experiments were run side by side.
Cell line: RPMI-8226

The growth of `CC(=O)OC[C@H]1O[C@@H](Sc2sc(C(=O)c3ccc(C)cc3)c(N)c2-c2nc3ccccc3s2)[C@H](OC(C)=O)[C@@H](OC(C)=O)[C@@H]1OC(C)=O` is reported as 46.5% (SRB; 10 µM, 48 h).
For `CN1CCN(C(=O)N(CCCCCCC(=O)NO)c2ccc(-c3ccc4cnn(C)c4c3)cc2)CC1`, the IC50 was 53.3 nM (cell growth or viability, ATP luminescence; 72 h).
With `CC/C=C\C/C=C\C/C=C\C/C=C\C/C=C\C/C=C\CCC(=O)Nc1ccn(C2OC(CO)C(O)C2(F)F)c(=O)n1` (stereo not drawn) the GI50 was 53.8 nM (cell growth or viability, SRB).
`COc1ccc2c(c1)/C(=N\Nc1nnc3n1N=C(c1ccccc1)CS3)C(=O)N2` has an inhibition of 61% (cell growth or viability, SRB; 10 µM).
For `CC(=O)OC[C@H]1O[C@@H](Sc2sc(C(=O)c3ccc(Br)cc3)c(N)c2-c2nc3ccccc3s2)[C@H](OC(C)=O)[C@@H](OC(C)=O)[C@@H]1OC(C)=O`, the growth was 43% (SRB; 10 µM, 48 h).
`CC(Cc1ccc(Cl)cc1)=C(c1ccc(Cl)cc1)c1ccc(OCCN(C)C)cc1` gave a GI50 of 1070 nM (cell growth or viability).
For `C=CC(=O)N1CCCC(n2c(=O)c3ncccc3n(Cc3ccc(Oc4ccccc4)cc3)c2=O)C1` (stereo not drawn), the IC50 was 10000 nM (cell growth or viability, MTT; 72 h).
For `O=C(NO)c1ccc(Cn2sc3ccccc3c2=O)cc1`, the IC50 was 3800 nM (cell growth or viability, ATP luminescence; 72 h).
For `CC(=C(c1ccc(O)cc1)c1ccc(Cl)cc1)c1ccc(Cl)cc1`, the GI50 was 580 nM (cell growth or viability).

Excerpt of the above:
`COc1ccc2c(c1)/C(=N\Nc1nnc3n1N=C(c1ccccc1)CS3)C(=O)N2` has an inhibition of 61% (cell growth or viability, SRB; 10 µM).
